Assay results of several laboratories.
Numbered parts are unrelated; each lists some results of a single study. Substitutions count along the parent as printed.

Study 1
Target: RING finger protein unkempt homolog, zinc fingers 1-6, GST-SBP tag (UNK, Homo sapiens, UniProt Q9C0B0, residues 30-357)
Technique: RNA Bind-n-Seq
Molecule type: RNA
Sample: in vitro
Concentration: not given
Setting: RNA with constant flanks, human and mouse sites, ends assumed
Relative to: input RNA pool
Direction: higher = stronger binding
Shared flanks, not repeated: GGGAGUUCUACAGUCCGACGAUC … CAACAGAGGAUUGAGCAUCA
Residues (chain): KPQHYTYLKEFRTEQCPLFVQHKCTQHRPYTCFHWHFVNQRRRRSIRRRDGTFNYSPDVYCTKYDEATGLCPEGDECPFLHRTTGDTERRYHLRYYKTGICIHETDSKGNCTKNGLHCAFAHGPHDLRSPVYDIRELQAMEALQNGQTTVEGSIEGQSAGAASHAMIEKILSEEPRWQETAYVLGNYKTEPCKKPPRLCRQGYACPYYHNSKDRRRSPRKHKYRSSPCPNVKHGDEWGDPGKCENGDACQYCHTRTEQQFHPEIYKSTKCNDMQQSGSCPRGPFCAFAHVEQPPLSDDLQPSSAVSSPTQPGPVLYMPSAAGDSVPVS
`UCCUUCCCACAUCACAGGGCUACCUUGAGACUUUCUGAGAAGUUUAUUCUUCUCCUUAUUCUUAGUGCCUUCAUCACUCUGUGUUUUGGGGCAUUCUUUUUCCUUCCAGACUCUUCAAAA` gave a bound/input enrichment of 0.407 ratio.
`ACCCGGGGCACCUCCAUCAAGGAAUUCCGGGAGAUGACCCUCAGCUUCCUCAAGGCGAACCUGGGAGACCUGCCUUCCCUGCCGGCGCUGGUUGGCCAGGUCCUGCUCAUGGCUGACUUC` has a bound/input enrichment of 0.084 ratio.
The bound/input enrichment of `AUGGAACUCGCCUAUCAGACUUUACUAGAGGCAACAACCAGUAGUGAUCAAUGUGCUGUUCAACUUUUCUACUCAGUGAGGAAUAUCUUCCAUUUGUUCCAUGAUGUUGUACCAACAUAU` is reported as 0.254 ratio.
For `AAGAAGAAGCAAGGUGAAGAUAACUCUACUGCACAGGACACAGAAGAAUUAGAAAAAGAGAUUAGAGAAGACCUUCCAGUGAAUACCUCUAAAACCCGUCCAAAACAGGAAAAAGCUUUU`, the bound/input enrichment was 1.26 ratio.
`CUGGCUUAGAUAAUAUGGCUACACACUUAAGUCAGCAUGAAACUCAUUCUUGCCGAGUUCUAGUAGAGCAAGUUUCUGUUUGUAUCCCAACUUCUGAACGUCUUUCUGAAAUAAAAACUG` gave a bound/input enrichment of 0.524 ratio.
`AAUGCUUGUUGGGUGCAUAAACAUUUCACAGAGGAUAUCCAGACACGUCAGUAUAGGUCCAUAGAGGUUUUAAUAGGAGCAGGCUACAGCACACCUGCAGACAUUUGGAGUACAGCUUGC` has a bound/input enrichment of 4.43 ratio.
With `UUUGCCCUUUCAAACCUUAUUCAGGUUGGGACUCAUUUCUUUCUGGUGGAUCACAGCUACCCAGAUGUGUAGAUUGAUCUCUAUGUUCUAUAGAGAAAUCCUUUUCUUUCAUCUUCAGCA` the bound/input enrichment was 0.115 ratio.
`GGACGGGCACAGCUGGCGUGACCACCAUGAGUCUGGGAGCACCUCCCACUAUGUCAAACUUUAGCCCUUUGACUAUUCCUCCUGCUAGCGUGAAGCAGCCUCAACAGAGACCAACCGAUA` gave a bound/input enrichment of 0.229 ratio.
`GGAAUCAUCGGGGGUAAAGAAGCGGCGGAUACCCCGUUUUGAGGAGGUAGAAGAGGAGCCAGAGGUGAUCCCUGGACCUCCAUCAGAAAGCCCUGGCAUGCUAACAAAGCUCCAGAUCAA` gave a bound/input enrichment of 0.145 ratio.
The bound/input enrichment of `UGAUUGUGACGUCACAUUCUUCAGCAUUGUCAUGAGAUUAAUAUACUUAAAUCUACUACUCAUUGGAUUGCCGGGGAUGUCCCUUUAAAAGGACUGCUGCCUUCAGCUGAAAAUGUAAUG` is reported as 0.135 ratio.
With `GGCCCGGGGCCGCGCUACGAGCUGCGGGACUGCUGCUGGGUGCUGUGCGCGCUGCUCGUGUUCUUCUCCGACGGUGCCACGGACCUGUGGCUGGCGGCCUCCUACUACCUGCAGAAUCAA` the bound/input enrichment was 0.109 ratio.

Study 2
Target: RNA binding protein fox-1 homolog 2, RRM domain, GST-SBP tag (RBFOX2, Homo sapiens, UniProt O43251-10, residues 100-194)
Technique: RNA Bind-n-Seq
Molecule type: RNA
Sample: in vitro
Concentration: 365 nM
Setting: natural RNA segment, single round, ends assumed
Relative to: no-protein control
Direction: higher = stronger binding
Shared flanks, not repeated: GGGAGUUCUACAGUCCGACGAUC … UGGAAUUCUCGGGUGCCAA
Residues (chain): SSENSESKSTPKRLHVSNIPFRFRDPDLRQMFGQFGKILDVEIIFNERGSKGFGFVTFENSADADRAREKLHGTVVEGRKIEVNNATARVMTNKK
For `UCAGGACAGUGGUGGAGCUGGGUCUUGAACCCCAGUCUGCACCUAAAAAACUAAAGGAAAUGGAUUUUUUUUUUUUUUUUUGAGACGGAGACUCACUCUGUUGCCCAGAC`, “RBNS enrichment (R)” read 0.303.
`CUGGUAAAAGGGAAUUCAGAAGAUUGCCUUAGAGUCUAAUUCCCCCAUGAAAGAUUAUUAAUUACAUCUCACUGUAGGGUCUUUCUGGUAUUGAGGGGAGUCAGCAUGUA`: “RBNS enrichment (R)” 12.9.
`GGCUUGACCCUGAGCCAUAGGGAAACUGAACUGUGGGGGCCUGUGGUUGACAGGCCUGUGAAAUCCCCUGUCCCACCCUGGAAUUUCAAAUAAAGAGCUUUUUACCCCUU`: “RBNS enrichment (R)” 0.3.
`GGCCCUGCAAAAGGACUCUCAGGACCAAAGCUUUCAUGUAAACUGUGCACCAAGCAGGAAAUGAAAAUGUCUUGUGUUACCUGAAAACACUGUGCACAUCUGUGUCUUGU` — result for “RBNS enrichment (R)”: 0.353.
`CUCCAGAUUUGCCAUACUGAGCCCCUCUUCCUAGCAUCAGGCGAUACAUCUGAGUUCAAAUGUCUUCCCAGGCUCAGGGACCUCCAUUCCUUGAGAUUGUCUUGGCAUGG` — result for “RBNS enrichment (R)”: 0.532.
`CUCAUGGUCAUUCUGUCUUACCUUAGUGGCUUGACAGUACUUACUAUAGCUCCUGAGGGAAGCCAAUCAACUUCUGUUUUCCUACCUGACCUGCAGGGCAUGAUGGAUCA` — result for “RBNS enrichment (R)”: 0.326.
For `GUGUACCUGCUGGAAGAAUUCUAGCAUGCUACUUGGGGACAUAAUUUCAGUGGGAAAUAUGCCACUGACCGAUUUUUUUUUUUUCCUCUUUGCAGUGGGGCUAGGACAGU`, “RBNS enrichment (R)” read 8.
`UCAAGGCCCGGCCCCAUCAGAGGCUGGGGGAGGCGGCACAUUGGCAGUGUGUCACACUGAGCUGGGCACCACAGGCUGCCUCAUGACCCUCCUGUCCAGCAGGUAGUGGG` — result for “RBNS enrichment (R)”: 0.246.
`CUCAGACCUCAGAGAUUGUGAAGGCAGUGCCAAGCUCACAGCAGUUCAGGACCAUCCCAGAAAGGGGUGAUAGCCCUGUUUAUCUCUCCAACCCAGUAUCUCAUGUGCCA`: “RBNS enrichment (R)” 0.288.
Under “RBNS enrichment (R)”, `CCCCAGCAUCACUCCCCAAGGAAGAGCCAAUGUUUUCCACCCAUAAUCCUUUCUGCCGACCCCUAGUUCCCUCUGCUCAGCCAAGCUUGUUAUCAGCUUUCAGGGCCAUG` is recorded as 0.824.
`CUGAACUGUGUUUACUGGAAAAAUUCAGAGGCCUAAAGUUUAAAAUAAAAUUUACUUCUGAUGUUUUAAUUAAAAUGUUUGCCACAUUAACUUUUCUGAUGCCUUAAAAG` — result for “RBNS enrichment (R)”: 0.595.
Under “RBNS enrichment (R)”, `AUGUUGUGCUAAGAUAAUGGCCUCCUGCUGCUGCCUAAAUGCUGAAAUGAGGUUGAGAUGUUUUUCAAGGCUAACUUCAUGGACUCACUCUGUUUAGUGACUUAAUUGUA` is recorded as 0.514.

Study 3
Target: CCNA1, cyclin fold, Cln2 fusion (human)
Technique: yeast growth competition, sequencing
Sample: yeast
Setting: weak parent motif
Relative to: not given
Direction: higher = stronger binding
Parent: CDKN1B docking peptide (human); PSACRNLFGPVDH
Under “normalised enrichment score”, `PSACRNLAGPVDH [F8A]` is recorded as 0.356.
Under “normalised enrichment score”, `PSACRNLFGPHDH [V11H]` is recorded as 0.585.
For `PSACRNLFAPVDH [G9A]`, “normalised enrichment score” read 0.462.
For `PSACRNLFGPVDR [H13R]`, “normalised enrichment score” read 0.371.
`PSACRNLFGPYDH [V11Y]` — result for “normalised enrichment score”: 0.372.
`DSACRNLFGPVDH [P1D]` — result for “normalised enrichment score”: -0.103.
Under “normalised enrichment score”, `PSACRNLFGAVDH [P10A]` is recorded as 0.372.
`PSACRNHFGPVDH [L7H]` — result for “normalised enrichment score”: 0.434.
`PFACRNLFGPVDH [S2F]`: “normalised enrichment score” 0.226.
For `PSACDNLFGPVDH [R5D]`, “normalised enrichment score” read 0.297.
For `PSPCRNLFGPVDH [A3P]`, “normalised enrichment score” read 0.0327.
`PSACRNVFGPVDH [L7V]` — result for “normalised enrichment score”: 0.37.
`PSACRNLFGMVDH [P10M]`: “normalised enrichment score” 0.153.
`VSACRNLFGPVDH [P1V]`: “normalised enrichment score” 0.442.
For `PKACRNLFGPVDH [S2K]`, “normalised enrichment score” read 0.545.
For `PSACRNLFGDVDH [P10D]`, “normalised enrichment score” read 0.487.
Under “normalised enrichment score”, `PSAERNLFGPVDH [C4E]` is recorded as -0.00269.
Under “normalised enrichment score”, `RSACRNLFGPVDH [P1R]` is recorded as 0.397.
`PSACRNGFGPVDH [L7G]` — result for “normalised enrichment score”: 0.271.

Study 4
Target: Histone acetyltransferase KAT6A, winged helix 2, GST fusion (KAT6A, Homo sapiens, UniProt Q92794, residues 85-181)
Technique: protein binding microarray
Molecule type: double-stranded DNA, one strand shown
Sample: in vitro
Concentration: not given
Setting: 8-mer, flanks averaged, mean of 2 arrays, mostly near background
Relative to: not given
Direction: higher = stronger binding
Construct (chain): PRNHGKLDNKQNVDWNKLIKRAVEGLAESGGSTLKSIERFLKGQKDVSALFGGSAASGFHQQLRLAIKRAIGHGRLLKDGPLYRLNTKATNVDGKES
With `CATCGTAA` the E-score was 0.0731.
The E-score of `AGGCTTTC` is reported as -0.00264.
With `ATTAAGTC` the E-score was 0.0646.
`AAGACTGG` gave an E-score of -0.22.
With `GCGCCAAC` the E-score was 0.103.
`ACAATTCG` has an E-score of 0.0332.
The E-score of `AAAGCATT` is reported as 0.0257.
`AAGGTCGA` has an E-score of -0.0421.
The E-score of `AGGATGTA` is reported as -0.176.
With `ATTTGCGC` the E-score was 0.103.
The E-score of `ATTACGAA` is reported as 0.00128.
The E-score of `GTTCACTA` is reported as -0.0715.
`CTGAAGGA` gave an E-score of -0.0687.
The E-score of `AGGCATGC` is reported as 0.0692.
`ATCGTCCG` gave an E-score of 0.142.
The E-score of `AAATTGAC` is reported as 0.0829.
The E-score of `GTAGTCTA` is reported as -0.145.
The E-score of `ATTATCCG` is reported as 0.018.

Repeated from above (study 2):
`GGCCCUGCAAAAGGACUCUCAGGACCAAAGCUUUCAUGUAAACUGUGCACCAAGCAGGAAAUGAAAAUGUCUUGUGUUACCUGAAAACACUGUGCACAUCUGUGUCUUGU` — result for “RBNS enrichment (R)”: 0.353.
`CUCCAGAUUUGCCAUACUGAGCCCCUCUUCCUAGCAUCAGGCGAUACAUCUGAGUUCAAAUGUCUUCCCAGGCUCAGGGACCUCCAUUCCUUGAGAUUGUCUUGGCAUGG` — result for “RBNS enrichment (R)”: 0.532.
`CUCAUGGUCAUUCUGUCUUACCUUAGUGGCUUGACAGUACUUACUAUAGCUCCUGAGGGAAGCCAAUCAACUUCUGUUUUCCUACCUGACCUGCAGGGCAUGAUGGAUCA` — result for “RBNS enrichment (R)”: 0.326.
For `GUGUACCUGCUGGAAGAAUUCUAGCAUGCUACUUGGGGACAUAAUUUCAGUGGGAAAUAUGCCACUGACCGAUUUUUUUUUUUUCCUCUUUGCAGUGGGGCUAGGACAGU`, “RBNS enrichment (R)” read 8.
`UCAAGGCCCGGCCCCAUCAGAGGCUGGGGGAGGCGGCACAUUGGCAGUGUGUCACACUGAGCUGGGCACCACAGGCUGCCUCAUGACCCUCCUGUCCAGCAGGUAGUGGG` — result for “RBNS enrichment (R)”: 0.246.
`CUCAGACCUCAGAGAUUGUGAAGGCAGUGCCAAGCUCACAGCAGUUCAGGACCAUCCCAGAAAGGGGUGAUAGCCCUGUUUAUCUCUCCAACCCAGUAUCUCAUGUGCCA`: “RBNS enrichment (R)” 0.288.
Under “RBNS enrichment (R)”, `CCCCAGCAUCACUCCCCAAGGAAGAGCCAAUGUUUUCCACCCAUAAUCCUUUCUGCCGACCCCUAGUUCCCUCUGCUCAGCCAAGCUUGUUAUCAGCUUUCAGGGCCAUG` is recorded as 0.824.
`CUGAACUGUGUUUACUGGAAAAAUUCAGAGGCCUAAAGUUUAAAAUAAAAUUUACUUCUGAUGUUUUAAUUAAAAUGUUUGCCACAUUAACUUUUCUGAUGCCUUAAAAG` — result for “RBNS enrichment (R)”: 0.595.
